Measured values of several laboratories.
Each line is one published result; not all experiments were run side by side. Several values in a cell are separate wells, animals, samples, runs or records. ± gives the spread as reported.

SMILES	target or system	assay	test system	conditions	scale	measurement	result
Nc1ncnc2c([C@@H]3N[C@H](CO)[C@@H](O)[C@H]3O)c[nH]c12	Yellow fever virus	viral replication	Vero 76, 17D	9.5 µM		inhibition	50%
CC[C@H](C)[C@H](NC(=O)[C@H](CC(C)C)NC(=O)[C@H](Cc1c[nH]c2ccccc12)NC(=O)[C@H](CCC(N)=O)NC(=O)[C@@H](NC(=O)[C@H](Cc1ccccc1)NC(=O)[C@H](C)NC(=O)[C@H](CCCCNC(=O)COCCOCCNC(=O)COCCOCCNC(=O)CC[C@H](NC(=O)CCCCCCCCCCCCCCCCCCC(=O)O)C(=O)O)NC(=O)[C@H](CCC(N)=O)NC(=O)[C@H](C)NC(=O)[C@@H](NC(=O)[C@H](CCCCN)NC(=O)[C@H](CC(=O)O)NC(=O)[C@H](CC(C)C)NC(=O)C(C)(C)NC(=O)[C@@H](NC(=O)[C@H](CO)NC(=O)[C@H](Cc1ccc(O)cc1)NC(=O)[C@H](CC(=O)O)NC(=O)[C@H](CO)NC(=O)[C@@H](NC(=O)[C@H](Cc1ccccc1)NC(=O)[C@@H](NC(=O)CNC(=O)[C@H](CCC(=O)O)NC(=O)C(C)(C)NC(=O)[C@@H](N)Cc1ccc(O)cc1)[C@@H](C)O)[C@@H](C)O)[C@@H](C)CC)[C@@H](C)CC)C(C)C)C(=O)N[C@@H](C)C(=O)NCC(=O)NCC(=O)N1CCC[C@H]1C(=O)N[C@@H](CO)C(=O)N[C@@H](CO)C(=O)NCC(=O)N[C@@H](C)C(=O)N1CCC[C@H]1C(=O)N1CCC[C@H]1C(=O)N1CCC[C@H]1C(=O)N[C@@H](CO)C(N)=O			humans with end-stage renal disease	subcutaneous, 5 mg	reference: ESRD over normal renal function	Cmax ratio	1.02
CCCN1CCC=C(c2cc(-c3ccc(C)cc3)no2)C1	J774A.1	alamarBlue				CC50	48.8 ± 12.5 µM
CCC(CC)COC(=O)[C@H](C)N[P@](=O)(OC[C@H]1O[C@@](C#N)(c2ccc3c(N)ncnn23)[C@H](O)[C@@H]1O)Oc1ccccc1	Vero	cell morphology, microscopy		5 (unit not given)		minimum cytotoxic concentration	> 40 µM
O=C[C@H](C[C@@H]1CCNC1=O)NC(=O)[C@H](Cc1cccc(F)c1)NC(=O)c1cc2ccccc2[nH]1	A549	cell growth or viability, MTT		24 h		CC50	> 100 µM
CCc1c(C(=O)C(N)=O)c2c(OCC(=O)O)cccc2n1Cc1ccccc1	C2C12			100 µM, without venom, unit not given	reference: cells alone (=100)	viability	97 and 95 and 99.1
CCC(CC)COC(=O)[C@H](C)N[P@](=O)(OC[C@H]1O[C@@](C#N)(c2ccc3c(N)ncnn23)[C@H](O)[C@@H]1O)Oc1ccccc1	Vero			24 h		CC50	> 50 µM
CC[C@H](C)[C@H](NC(=O)[C@H](CC(C)C)NC(=O)[C@H](Cc1c[nH]c2ccccc12)NC(=O)[C@H](CCC(N)=O)NC(=O)[C@@H](NC(=O)[C@H](Cc1ccccc1)NC(=O)[C@H](C)NC(=O)[C@H](CCCCNC(=O)COCCOCCNC(=O)COCCOCCNC(=O)CC[C@H](NC(=O)CCCCCCCCCCCCCCCCCCC(=O)O)C(=O)O)NC(=O)[C@H](CCC(N)=O)NC(=O)[C@H](C)NC(=O)[C@@H](NC(=O)[C@H](CCCCN)NC(=O)[C@H](CC(=O)O)NC(=O)[C@H](CC(C)C)NC(=O)C(C)(C)NC(=O)[C@@H](NC(=O)[C@H](CO)NC(=O)[C@H](Cc1ccc(O)cc1)NC(=O)[C@H](CC(=O)O)NC(=O)[C@H](CO)NC(=O)[C@@H](NC(=O)[C@H](Cc1ccccc1)NC(=O)[C@@H](NC(=O)CNC(=O)[C@H](CCC(=O)O)NC(=O)C(C)(C)NC(=O)[C@@H](N)Cc1ccc(O)cc1)[C@@H](C)O)[C@@H](C)O)[C@@H](C)CC)[C@@H](C)CC)C(C)C)C(=O)N[C@@H](C)C(=O)NCC(=O)NCC(=O)N1CCC[C@H]1C(=O)N[C@@H](CO)C(=O)N[C@@H](CO)C(=O)NCC(=O)N[C@@H](C)C(=O)N1CCC[C@H]1C(=O)N1CCC[C@H]1C(=O)N1CCC[C@H]1C(=O)N[C@@H](CO)C(N)=O			healthy subjects	all MAD doses		subjects with upper respiratory infection	0%
CC(C)N1CCN(c2ccc(OCC3COC(Cn4cncn4)(c4ccc(Cl)cc4Cl)O3)cc2)CC1 (stereo not drawn)	J774A.1	alamarBlue				CC50	84.6 ± 15.6 µM
CCC(CC)COC(=O)[C@H](C)N[P@](=O)(OC[C@H]1O[C@@](C#N)(c2ccc3c(N)ncnn23)[C@H](O)[C@@H]1O)Oc1ccccc1	Vero	cell morphology		5 (unit not given)		minimum cytotoxic concentration	80 µM
NCCOc1ccc(Cl)cc1C(=O)NCC(=O)Nc1ccc([N+](=O)[O-])cc1Cl	Vero E6			48 h		CC50	53.1 µM
Cn1cnc(Cn2c(=O)[nH]/c(=N\c3cc4cn(C)nc4cc3Cl)n(Cc3cc(F)c(F)cc3F)c2=O)n1			human, mild renal impairment, plasma	oral, 375 mg single dose		renal clearance	0.545 mL/min
Cc1cc(C)c(CNC(=O)c2cc(Cl)c3c(c2C)O[C@@](C)([C@H]2CC[C@H](N(C)C)CC2)O3)c(=O)[nH]1			human, relapsed/refractory NHL	concentration not given, treatment-related TEAEs, grade 5		COVID-19 pneumonia incidence	0%
CC(C)(C)[C@H](NC(=O)C(F)(F)F)C(=O)N1C[C@H]2[C@@H]([C@H]1C(=O)N[C@H](C#N)C[C@@H]1CCNC1=O)C2(C)C	Caco-2			48 h		CC50	213 µM
CC(C)(C)OC(=O)NCCOc1ccc(Cl)cc1C(=O)NCC(=O)Nc1ccc([N+](=O)[O-])cc1Cl	Vero E6			48 h		CC50	342 µM

Repeated from above:
SMILES	target or system	assay	test system	conditions	scale	measurement	result
CC(C)(C)[C@H](NC(=O)C(F)(F)F)C(=O)N1C[C@H]2[C@@H]([C@H]1C(=O)N[C@H](C#N)C[C@@H]1CCNC1=O)C2(C)C	Caco-2			48 h		CC50	213 µM
